Experimental data from different studies.
Each numbered part is a random draw from the data of one study; scales do not carry over between parts. Positions count from the first letter of the parent shown.

Set 1
Target: Interferon regulatory factor 5, full length, phosphomimetic (IRF5, Homo sapiens, UniProt Q13568-2, residues 1-514, K96S/S451D/S453D/S456D/S462D)
Technique: protein-binding microarray
Molecule type: double-stranded DNA, one strand shown
Sample: in vitro
Tested at: 250 nM
Notes: 60-bp whole probe
Added: salmon DNA 0.4 mg/ml
Reference: random background probes
Reading: higher = stronger binding
Quantity: log fluorescence
Shared flanks, not repeated: GCCTAGCAC … GTCTTGATTCGCTTGACGCTGCTG
TTAGGAGTGCTTATCCTTTAGTGCTAG: -0.369 z-score
TCATATTTTTTTGTAATACTGTGCTAG: 1.09 z-score
TTAGATTTCGGGGCTGGATTAGTGCTA: 2.2 z-score
CTCTACTTGTGTCTAGAGATGTGCTAG: -0.281 z-score
AATCATTCACCTGTCGTTGAGTGCTAG: 0.592 z-score
TTAGGTATTCTACTGCTTTAGTGCTAG: 0.103 z-score
TCACATTCCAATTCTTTTACTGTGCTA: 1.39 z-score
TCAGTTTTTATTTTCTGACTGTGCTAG: 1.64 z-score
GACGCACTGGACACTGGGGACGTGCTA: -0.736 z-score
TTATGTTTCGGTTTCGGTTAGTGCTAG: 11.9 z-score
GACGGTCTCGGTCTCGTGACGTGCTAG: 0.0699 z-score
GGCGAACTGAGTCTCGAGACGTGCTAG: -0.414 z-score
AACGATGCAAGTGCCCTTCGGTGCTAG: 0.0481 z-score
TCTATAATGGATATATATCAGTGCTAG: 0.667 z-score
GACGATTTCGGGACAGGAGACGTGCTA: 2.09 z-score
TCACCTATTTATATGAGACTGTGCTAG: 0.597 z-score

Set 2
Target: CCND2, cyclin fold, Cln2 fusion (human)
Technique: yeast growth competition, sequencing
Sample: yeast
Notes: weak parent motif
Reference: not given
Reading: higher = stronger binding
Quantity: normalised enrichment score
Parent: CDKN1A docking peptide (human); SKACRRLFGPVDS
SKACRRLFVPVDS [G9V]: 0.411
SKACRRLFGPGDS [V11G]: 0.54
SKACRRLFIPVDS [G9I]: 0.665
SKACRRLQGPVDS [F8Q]: 0.285
SKACRRLFGPKDS [V11K]: -0.139
SKRCRRLFGPVDS [A3R]: -0.259
SKACRTLFGPVDS [R6T]: 0.462
SKACRKLFGPVDS [R6K]: 0.558
SKAPRRLFGPVDS [C4P]: 0.163
SKACRRLFFPVDS [G9F]: 1.02
SKACRRLFRPVDS [G9R]: 0.471
SKACRRLKGPVDS [F8K]: -0.0186
SKACRRLFGPVTS [D12T]: 0.254
SKACRRQFGPVDS [L7Q]: 0.0428
SKAARRLFGPVDS [C4A]: 0.333

Set 3
Target: ATF3, bZIP domain (human)
Technique: DHFR protein complementation
Sample: yeast
Notes: single substitutions, most at no-binding floor
Reference: wild-type JUN-FOS pair
Reading: higher = stronger binding
Quantity: binding fitness
Parent: JUN, bZIP domain (human); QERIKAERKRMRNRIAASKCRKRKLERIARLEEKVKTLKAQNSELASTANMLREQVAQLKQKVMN; partner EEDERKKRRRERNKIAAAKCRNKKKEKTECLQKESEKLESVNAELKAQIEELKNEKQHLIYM
V56N: -0.583 natural log
A49L: -0.0284 natural log
A46V: -0.0623 natural log
K36F: -0.3 natural log
E54R: -0.215 natural log
A40I: -0.152 natural log
S43D: -0.0878 natural log
K36A: -0.00997 natural log
A46G: -0.46 natural log
A46Q: -0.0668 natural log
L31R: -0.97 natural log
A57W: -0.243 natural log
Q55H: -0.265 natural log
K39W: -0.559 natural log
K39D: -0.678 natural log
M51N: -0.201 natural log
A49W: -0.288 natural log
E33H: -0.201 natural log
L31I: -0.417 natural log
A40W: -0.349 natural log
I28H: -0.195 natural log
Q41D: -0.375 natural log

Set 4
Target: ABI1, truncated, D143A, DHFR fusion (Arabidopsis thaliana)
Technique: DHFR PCA, deep sequencing
Sample: yeast
Notes: methotrexate growth selection, single substitutions
Added: (+)-ABA 58 µM
Reference: wild-type fitted maximum
Reading: higher = stronger binding
Quantity: relative binding score
Parent: PYL1, truncated, DHFR fusion (Arabidopsis thaliana); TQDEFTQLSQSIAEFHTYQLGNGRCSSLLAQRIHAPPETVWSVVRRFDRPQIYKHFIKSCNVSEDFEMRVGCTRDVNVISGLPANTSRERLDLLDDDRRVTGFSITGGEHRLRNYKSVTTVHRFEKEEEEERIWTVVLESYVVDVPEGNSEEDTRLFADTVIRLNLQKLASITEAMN; partner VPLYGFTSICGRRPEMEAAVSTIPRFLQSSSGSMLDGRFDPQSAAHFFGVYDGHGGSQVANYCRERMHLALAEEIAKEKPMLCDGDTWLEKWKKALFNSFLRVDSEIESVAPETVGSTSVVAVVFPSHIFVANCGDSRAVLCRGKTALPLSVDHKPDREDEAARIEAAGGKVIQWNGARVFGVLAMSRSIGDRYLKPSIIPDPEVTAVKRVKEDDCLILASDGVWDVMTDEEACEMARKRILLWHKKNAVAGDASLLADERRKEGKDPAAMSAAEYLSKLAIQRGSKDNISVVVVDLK
D159V: 9.76%
D48M: -13.2%
A13P: 34.7%
G71A: 25.6%
Y18N: 76.4%
M68F: 75.1%
G81A: 29.8%
N85F: 76.9%
T17K: 79.2%
E139W: 76.1%
A175R: 84.4%
R132F: 89.1%
V44C: 62.3%
A13S: 83.7%
W41F: 13.3%
Y53M: 20.5%
H110D: 5.15%
Y18D: 53.7%
Q51F: 45.9%
D144I: 21.4%

Excerpt of the above (set 3):
A46G: -0.46 natural log
L31R: -0.97 natural log
A46V: -0.0623 natural log
Q55H: -0.265 natural log
E54R: -0.215 natural log
A40I: -0.152 natural log
E33H: -0.201 natural log
Q41D: -0.375 natural log
I28H: -0.195 natural log
A40W: -0.349 natural log
